Results gathered from unrelated publications.
Numbered parts are unrelated; each lists some results of a single study.
Sequence of UniProt O14730 (whole entry, looked up): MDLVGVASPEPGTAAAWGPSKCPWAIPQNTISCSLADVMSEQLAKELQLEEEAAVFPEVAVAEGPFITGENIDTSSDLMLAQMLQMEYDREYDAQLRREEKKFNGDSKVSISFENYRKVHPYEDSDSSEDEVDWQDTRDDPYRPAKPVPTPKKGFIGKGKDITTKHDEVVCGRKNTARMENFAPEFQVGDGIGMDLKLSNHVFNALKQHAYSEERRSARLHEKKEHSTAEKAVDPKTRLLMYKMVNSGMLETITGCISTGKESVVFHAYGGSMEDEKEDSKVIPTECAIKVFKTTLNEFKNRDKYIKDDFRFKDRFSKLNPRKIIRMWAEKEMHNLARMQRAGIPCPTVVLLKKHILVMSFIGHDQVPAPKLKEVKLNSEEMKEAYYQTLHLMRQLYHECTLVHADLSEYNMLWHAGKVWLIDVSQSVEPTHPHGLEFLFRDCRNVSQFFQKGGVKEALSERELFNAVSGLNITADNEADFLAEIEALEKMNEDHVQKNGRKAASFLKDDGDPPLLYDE
Sequence of UniProt Q8N568 (whole entry, looked up): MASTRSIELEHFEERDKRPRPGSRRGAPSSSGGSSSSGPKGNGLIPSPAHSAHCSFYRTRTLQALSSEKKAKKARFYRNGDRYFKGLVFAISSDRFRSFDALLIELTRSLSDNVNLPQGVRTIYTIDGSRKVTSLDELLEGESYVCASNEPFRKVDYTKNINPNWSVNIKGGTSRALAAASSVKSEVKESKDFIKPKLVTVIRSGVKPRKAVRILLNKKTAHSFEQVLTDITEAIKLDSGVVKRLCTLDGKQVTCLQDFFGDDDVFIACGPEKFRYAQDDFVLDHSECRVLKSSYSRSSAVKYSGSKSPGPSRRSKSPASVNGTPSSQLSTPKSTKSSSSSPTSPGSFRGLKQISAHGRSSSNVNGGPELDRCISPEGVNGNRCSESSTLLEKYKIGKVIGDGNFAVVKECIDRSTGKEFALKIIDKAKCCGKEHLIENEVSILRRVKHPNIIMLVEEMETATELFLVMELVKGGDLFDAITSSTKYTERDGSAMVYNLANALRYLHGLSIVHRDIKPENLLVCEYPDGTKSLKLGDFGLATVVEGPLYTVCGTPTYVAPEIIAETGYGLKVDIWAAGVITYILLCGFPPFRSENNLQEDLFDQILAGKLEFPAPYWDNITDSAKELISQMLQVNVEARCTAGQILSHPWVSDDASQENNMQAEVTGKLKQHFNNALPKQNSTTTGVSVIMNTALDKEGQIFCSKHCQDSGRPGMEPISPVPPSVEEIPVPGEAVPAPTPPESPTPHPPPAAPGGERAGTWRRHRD
Sequence of UniProt Q96L34 (whole entry, looked up): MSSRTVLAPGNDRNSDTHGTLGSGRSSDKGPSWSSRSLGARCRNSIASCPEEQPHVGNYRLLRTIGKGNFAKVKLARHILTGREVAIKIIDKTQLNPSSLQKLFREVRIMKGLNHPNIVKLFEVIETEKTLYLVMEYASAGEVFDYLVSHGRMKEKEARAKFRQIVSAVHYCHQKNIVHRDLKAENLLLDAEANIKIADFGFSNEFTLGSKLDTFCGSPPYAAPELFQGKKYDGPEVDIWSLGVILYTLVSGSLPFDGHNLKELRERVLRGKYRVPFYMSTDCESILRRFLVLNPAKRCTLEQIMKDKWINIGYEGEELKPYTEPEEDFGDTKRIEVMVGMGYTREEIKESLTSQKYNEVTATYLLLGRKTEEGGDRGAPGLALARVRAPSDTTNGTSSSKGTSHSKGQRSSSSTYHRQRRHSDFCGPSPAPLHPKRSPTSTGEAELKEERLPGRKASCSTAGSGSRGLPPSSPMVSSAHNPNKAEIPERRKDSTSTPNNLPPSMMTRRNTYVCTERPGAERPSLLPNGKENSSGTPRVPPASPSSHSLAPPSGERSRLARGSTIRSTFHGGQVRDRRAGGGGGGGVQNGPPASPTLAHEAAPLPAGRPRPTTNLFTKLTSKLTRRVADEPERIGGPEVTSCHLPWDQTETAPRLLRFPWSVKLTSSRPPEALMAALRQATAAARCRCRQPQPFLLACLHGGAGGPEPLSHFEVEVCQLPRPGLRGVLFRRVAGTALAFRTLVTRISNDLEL
Sequence of UniProt Q16832 (whole entry, looked up): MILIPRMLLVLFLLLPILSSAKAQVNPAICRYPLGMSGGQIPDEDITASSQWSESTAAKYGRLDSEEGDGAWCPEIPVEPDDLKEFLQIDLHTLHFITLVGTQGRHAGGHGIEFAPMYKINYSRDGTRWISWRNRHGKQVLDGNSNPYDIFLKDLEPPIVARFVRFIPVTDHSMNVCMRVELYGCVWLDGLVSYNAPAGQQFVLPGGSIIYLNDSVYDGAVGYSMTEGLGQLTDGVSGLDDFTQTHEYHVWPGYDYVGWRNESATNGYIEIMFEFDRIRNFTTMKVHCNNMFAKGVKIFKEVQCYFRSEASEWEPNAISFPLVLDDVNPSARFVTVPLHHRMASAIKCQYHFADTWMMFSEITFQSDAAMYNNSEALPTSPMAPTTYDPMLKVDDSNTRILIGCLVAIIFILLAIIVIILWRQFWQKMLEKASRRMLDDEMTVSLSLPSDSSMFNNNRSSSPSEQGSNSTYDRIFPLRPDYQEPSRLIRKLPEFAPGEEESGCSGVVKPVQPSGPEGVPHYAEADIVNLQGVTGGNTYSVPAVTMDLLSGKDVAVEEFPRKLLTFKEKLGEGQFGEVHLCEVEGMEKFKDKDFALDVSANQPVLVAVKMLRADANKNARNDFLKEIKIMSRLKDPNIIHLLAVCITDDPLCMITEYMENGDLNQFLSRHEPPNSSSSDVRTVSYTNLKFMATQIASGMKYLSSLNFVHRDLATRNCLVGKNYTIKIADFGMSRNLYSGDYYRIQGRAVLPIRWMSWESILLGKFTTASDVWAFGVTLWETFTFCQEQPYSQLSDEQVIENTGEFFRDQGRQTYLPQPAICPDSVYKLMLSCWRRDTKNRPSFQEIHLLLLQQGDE
Sequence of UniProt P07333 (whole entry, looked up): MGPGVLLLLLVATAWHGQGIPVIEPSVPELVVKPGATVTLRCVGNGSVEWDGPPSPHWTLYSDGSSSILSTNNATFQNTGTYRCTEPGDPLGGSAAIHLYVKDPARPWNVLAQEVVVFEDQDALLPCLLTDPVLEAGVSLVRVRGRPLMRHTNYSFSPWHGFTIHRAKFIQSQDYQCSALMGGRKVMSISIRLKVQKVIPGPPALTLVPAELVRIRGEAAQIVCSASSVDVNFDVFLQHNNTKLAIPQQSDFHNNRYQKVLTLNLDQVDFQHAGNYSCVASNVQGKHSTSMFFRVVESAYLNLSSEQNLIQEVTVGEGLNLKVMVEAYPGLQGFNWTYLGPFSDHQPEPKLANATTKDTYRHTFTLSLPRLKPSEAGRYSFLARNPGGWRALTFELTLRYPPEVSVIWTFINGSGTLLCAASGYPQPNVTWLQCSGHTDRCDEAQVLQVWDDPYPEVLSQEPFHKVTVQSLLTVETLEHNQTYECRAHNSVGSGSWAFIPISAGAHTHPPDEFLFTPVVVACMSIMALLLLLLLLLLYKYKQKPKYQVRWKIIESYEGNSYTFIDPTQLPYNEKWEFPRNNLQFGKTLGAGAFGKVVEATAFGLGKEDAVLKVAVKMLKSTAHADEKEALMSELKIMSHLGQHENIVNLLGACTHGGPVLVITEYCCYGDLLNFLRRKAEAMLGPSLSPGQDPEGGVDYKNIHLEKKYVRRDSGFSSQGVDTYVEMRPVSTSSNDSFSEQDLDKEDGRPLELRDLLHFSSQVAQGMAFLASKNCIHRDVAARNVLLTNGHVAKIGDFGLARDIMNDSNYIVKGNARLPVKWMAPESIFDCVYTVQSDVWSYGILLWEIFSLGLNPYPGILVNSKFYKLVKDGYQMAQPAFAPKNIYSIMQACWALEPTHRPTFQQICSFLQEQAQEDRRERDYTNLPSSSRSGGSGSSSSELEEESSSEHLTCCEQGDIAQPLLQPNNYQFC
Sequence of UniProt Q9UQB9 (whole entry, looked up): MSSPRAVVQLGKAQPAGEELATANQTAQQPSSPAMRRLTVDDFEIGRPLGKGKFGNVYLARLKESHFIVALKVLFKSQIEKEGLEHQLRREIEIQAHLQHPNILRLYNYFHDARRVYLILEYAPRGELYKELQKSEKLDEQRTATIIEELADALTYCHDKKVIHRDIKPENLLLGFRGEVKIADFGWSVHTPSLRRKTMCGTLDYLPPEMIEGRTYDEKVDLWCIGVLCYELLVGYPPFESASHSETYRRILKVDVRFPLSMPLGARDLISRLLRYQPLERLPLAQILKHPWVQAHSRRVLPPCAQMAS

Series 1 — host: human; matrix: microsomes or S9; concentration: 2 µM; time: 0.5 h
The remaining compound of `O=C(Nc1ccc2nncn2c1)c1cccc2cc[nH]c12` is reported as 67.3%.
The remaining compound of `CC(C)Nc1ncnc2onc(-c3cc(F)cc(F)c3)c12` is reported as 65.3%.
With `CCc1csc(Cn2cc(C(C)c3ccccc3)nn2)n1` (stereo not shown) the remaining compound was 22.1%.
The remaining compound of `OCCCNc1nc(N2CCN(c3ccccc3F)CC2)nc2ccccc12` is reported as 52.7%.
With `CC(C)c1ccc(NC(=O)CCNS(=O)(=O)c2cc(Br)cnc2N)cc1` the remaining compound was 1.08%.
With `O=c1c2c3c(sc2ncn1Cc1ccc2c(c1)OCO2)CNCC3` the remaining compound was 66.4%.
The remaining compound of `CCN(CC)C(=O)CN(C)Cc1nc(-c2nc[nH]n2)no1` is reported as over 100%.
For `Cn1nc(C2CC2)c2c(C(=O)Nc3ccc(Cn4cc(Cl)cn4)cc3)cc(C3CC3)nc21`, the remaining compound was 89.2%.
`CCN(CCCNC(=O)CN1C(=O)c2cccnc2Oc2ccc(C)cc21)c1cccc(C)c1` gave a remaining compound of 0.0233%.

Series 2 — technique: flow cytometry; dose: dose not given; relative to: vehicle
SMILES: CC(=O)N[C@@H](Cc1c[nH]c2ccccc12)C(=O)N[C@@H](CCC(=O)C=[N+]=[N-])C(=O)OC(C)C
It gave 1.25 for relative MFI (item: CD127; mice bearing MC38-OVA tumours, tumour-infiltrating CD8+ T cells).
item: CD44; CD8+ tumour-infiltrating lymphocytes, mouse, MC38-OVA tumour — relative MFI: 3.54.
item: TBET; CD8+ tumour-infiltrating lymphocytes, mouse, MC38-OVA tumour — relative MFI: 1.31.
item: CD69; CD8+ tumour-infiltrating lymphocytes, mouse, MC38-OVA tumour — relative MFI: 1.49.
For item: PD1; mice bearing MC38-OVA tumours, tumour-infiltrating CD8+ T cells: relative MFI read 1.86.

Series 3 — effect on: cell-free assay; technique: competition with immobilised ligand; concentration: 1 µM
Compound: N#CC1(c2ccccn2)CCN(Cc2cc(C(=O)N3CCCC3)c(=O)n3ccccc23)CC1
For MAP kinase-activated protein kinase 2 (MAPKAPK2, Homo sapiens, UniProt P49137): remaining binding read 84%.
For Interferon-induced, double-stranded RNA-activated protein kinase (EIF2AK2, Homo sapiens, UniProt P19525): remaining binding read 100%.
Ephrin type-A receptor 1 (EPHA1, Homo sapiens, UniProt P21709) — remaining binding: 83%.
The remaining binding was 90% (MAP/microtubule affinity-regulating kinase 4 (MARK4, Homo sapiens, UniProt Q96L34)).
It gave 85% for remaining binding (Cyclin-dependent kinase 15 (CDK15, Homo sapiens, UniProt Q96Q40)).
For Wee1-like protein kinase (WEE1, Homo sapiens, UniProt P30291): remaining binding read 74%.
The remaining binding was 88% (Aurora kinase C (AURKC, Homo sapiens, UniProt Q9UQB9)).
Epidermal growth factor receptor (EGFR, Homo sapiens, UniProt P00533, L858R/T790M) — remaining binding: 100%.
The remaining binding was 82% (LIM domain kinase 2 (LIMK2, Homo sapiens, UniProt P53671)).
For Serine/threonine-protein kinase DCLK2 (DCLK2, Homo sapiens, UniProt Q8N568): remaining binding read 100%.
The remaining binding was 100% (Serine/threonine-protein kinase SIK2 (SIK2, Homo sapiens, UniProt Q9H0K1)).
It gave 91% for remaining binding (Ribosomal protein S6 kinase alpha-6, C-terminal kinase domain (RPS6KA6, Homo sapiens, UniProt Q9UK32)).
Ephrin type-A receptor 8 (EPHA8, Homo sapiens, UniProt P29322) — remaining binding: 100%.
For Serine/threonine-protein kinase 16 (STK16, Homo sapiens, UniProt O75716): remaining binding read 100%.
Myosin light chain kinase family member 4 (MYLK4, Homo sapiens, UniProt Q86YV6) — remaining binding: 95%.
It gave 79% for remaining binding (Ribosomal protein S6 kinase alpha-4, N-terminal kinase domain (RPS6KA4, Homo sapiens, UniProt O75676)).
For Phosphatidylinositol 4,5-bisphosphate 3-kinase catalytic subunit alpha isoform (PIK3CA, Homo sapiens, UniProt P42336, Q546K): remaining binding read 94%.
The remaining binding was 90% (Serine/threonine-protein kinase RIO3 (RIOK3, Homo sapiens, UniProt O14730)).
For Dual specificity mitogen-activated protein kinase kinase 4 (MAP2K4, Homo sapiens, UniProt P45985): remaining binding read 83%.
Homeodomain-interacting protein kinase 3 (HIPK3, Homo sapiens, UniProt Q9H422) — remaining binding: 97%.
The remaining binding was 100% (Discoidin domain-containing receptor 2 (DDR2, Homo sapiens, UniProt Q16832)).
For Mitogen-activated protein kinase kinase kinase 1 (MAP3K1, Homo sapiens, UniProt Q13233): remaining binding read 98%.
For Macrophage colony-stimulating factor 1 receptor, autoinhibited (CSF1R, Homo sapiens, UniProt P07333): remaining binding read 86%.
Cyclin-dependent kinase 17 (CDK17, Homo sapiens, UniProt Q00537) — remaining binding: 82%.
For Epidermal growth factor receptor (EGFR, Homo sapiens, UniProt P00533, del747-750/T751S): remaining binding read 77%.

Series 4 — effect on: enzyme activity; action: inhibitor; concentration: 0.5 µM; relative to: control
Target: Interleukin-1 receptor-associated kinase 1 (IRAK1, Homo sapiens, UniProt P51617)
Sequence of UniProt P51617 (whole entry, looked up): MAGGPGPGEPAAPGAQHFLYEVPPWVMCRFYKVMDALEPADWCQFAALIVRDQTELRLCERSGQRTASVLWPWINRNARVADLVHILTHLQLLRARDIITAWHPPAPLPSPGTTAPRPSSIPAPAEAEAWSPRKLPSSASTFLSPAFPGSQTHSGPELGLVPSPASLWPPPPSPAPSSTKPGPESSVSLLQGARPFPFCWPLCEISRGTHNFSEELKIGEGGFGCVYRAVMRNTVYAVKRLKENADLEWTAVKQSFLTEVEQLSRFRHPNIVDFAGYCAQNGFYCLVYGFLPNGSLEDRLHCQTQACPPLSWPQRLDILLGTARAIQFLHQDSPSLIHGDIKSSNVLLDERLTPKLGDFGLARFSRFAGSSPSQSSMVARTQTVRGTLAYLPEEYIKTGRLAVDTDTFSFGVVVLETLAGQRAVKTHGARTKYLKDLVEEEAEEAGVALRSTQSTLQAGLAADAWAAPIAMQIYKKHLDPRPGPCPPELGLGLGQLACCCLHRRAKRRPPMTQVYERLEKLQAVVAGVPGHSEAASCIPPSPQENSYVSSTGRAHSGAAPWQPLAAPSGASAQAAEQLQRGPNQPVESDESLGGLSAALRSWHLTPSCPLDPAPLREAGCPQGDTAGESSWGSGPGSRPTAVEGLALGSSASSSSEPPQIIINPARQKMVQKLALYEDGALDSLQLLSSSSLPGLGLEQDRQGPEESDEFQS
With `O=C1NC(=O)c2c1c1c3ccccc3[nH]c1n1cncc21` the remaining activity was 83.1%.
The remaining activity of `O=Nc1c(-c2c(O)[nH]c3cc(Br)ccc23)[nH]c2ccccc12` is reported as 103%.
For `O=C1Nc2ccccc2/C1=C\c1c(Cl)[nH]c2ccccc12`, the remaining activity was 89.5%.
With `Cc1cc(Nc2cc(N3CCN(C)CC3)nc(Sc3ccc(NC(=O)C4CC4)cc3)n2)[nH]n1` the remaining activity was 91.5%.
For `O=C1Nc2ccc(Br)cc2/C1=C/c1cc2c([nH]1)CCCC2`, the remaining activity was 97%.
With `O=C(c1cc2cc(O)ccc2[nH]1)c1cc2cc(O)ccc2[nH]1` the remaining activity was 98.1%.
The remaining activity of `COc1cccc(-c2cc(=O)c3ccccc3o2)c1N` is reported as 98.8%.
`CCCCc1c(-c2ccc(OC)cc2)[nH]c2nccnc12` has a remaining activity of 64.3%.

Series 5
SMILES: COc1cc(C(=O)N2CCC(N3CCN(C)CC3)CC2)ccc1Nc1ncc2c(n1)N(C)c1ccccc1C(=O)N2C
The inhibition was -5.7% (MAP2K1 and MAP2K2 (mouse); probe labelling, KiNativ, item: DVkPSNILVNSR peptide, LYS2 site; brain tissue lysate (mouse); 0.1 µM, with: ADP acyl-phosphate probe).
It gave 14.6% for inhibition (MYLK; KiNativ ATP probe; human PBMC lysate; 1 µM, ATP loop site).
The inhibition was 9.4% (MLK1 (mouse); probe labelling, KiNativ ADP probe; mouse brain lysate; 1 µM, LYS1 labelled site).
For RSKL1 domain 1 (mouse); probe labelling, inhibitor, KiNativ ActivX ADP probe; mouse brain lysate; 0.1 µM: inhibition read -25.3%.
For MARK3 and MARK4 (mouse); probe labelling, KiNativ, item: EVAIkIIDK peptide, LYS1 site; brain tissue lysate (mouse); 0.1 µM, with: ADP acyl-phosphate probe: inhibition read -2.5%.
Protein kinase C zeta type (Prkcz, Mus musculus, UniProt Q02956); probe labelling, KiNativ, item: Lys1 site peptide; brain tissue lysate (mouse); 1 µM, with: ADP acyl-phosphate probe — inhibition: 5%.
LIMK1 (mouse); probe labelling, KiNativ ADP probe; mouse brain lysate; 0.1 µM, LYS1 labelled site — inhibition: -11.3%.
human PBMC; probe labeling, inhibitor, KiNativ profiling, item: APVAIkVFK; cell lysate; 1 µM, LYS1 site, with: ATP acyl-phosphate probe — inhibition: -0.4%.

A few entries again (series 3):
It gave 85% for remaining binding (Cyclin-dependent kinase 15 (CDK15, Homo sapiens, UniProt Q96Q40)).
Cyclin-dependent kinase 17 (CDK17, Homo sapiens, UniProt Q00537) — remaining binding: 82%.
For Macrophage colony-stimulating factor 1 receptor, autoinhibited (CSF1R, Homo sapiens, UniProt P07333): remaining binding read 86%.
For Interferon-induced, double-stranded RNA-activated protein kinase (EIF2AK2, Homo sapiens, UniProt P19525): remaining binding read 100%.
